Results from different studies.
Numbered parts are unrelated; each lists some results of a single study. Substitutions count along the parent as printed.

Study 1 — method: RNA Bind-n-Seq; form: RNA; sample: in vitro; tested at: 365 nM; relative to: no-protein control; reading: higher = stronger binding
Target: RNA binding protein fox-1 homolog 2, RRM domain, GST-SBP tag (RBFOX2, Homo sapiens, UniProt O43251-10, residues 100-194)
Notes: natural RNA segment, single round, ends assumed
Shared flanks, not repeated: GGGAGUUCUACAGUCCGACGAUC … UGGAAUUCUCGGGUGCCAA
Target sequence (chain): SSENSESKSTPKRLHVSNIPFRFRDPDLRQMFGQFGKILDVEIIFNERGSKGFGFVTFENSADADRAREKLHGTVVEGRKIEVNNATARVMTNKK
`GGUGGGCAAGGGCUGCGGCUCUGCCUCCACGACUGGGCGGAAGCCCAGGUAGGGGUGGGGCUGCCCUUCAGCGCAGCAGUGUGGGCUGCAUUUCUGUUCACCAGCCUCCC`: “RBNS enrichment (R)” 0.205.
`AGGUAUCUUGUCCCUCUCACUAAAAAGGAGUGUUGUGUGUGGCGGCCACGUGCUUCUAUGUGGUGUUUGACUCUGUACAAAUUCUAGUCCCAAAGAUCAAGUUGUCUGAA`: “RBNS enrichment (R)” 0.305.
`UAAGCAUGCUUCAAGAGGCAGUUGACCCACUGGAAUUUCUAUAAGGCUGGUACCCUUCCCAGAGUUACAGAAUCUUAGGUGCCGUCUCUAGUCUGUGAGGGAGGAACUCC`: “RBNS enrichment (R)” 18.6.
Under “RBNS enrichment (R)”, `UAGAGAGAGAGAAGCUGGAAGCGCAGCGAGCUCAGGAGAACGUGGAGCUGCCCCAGCUGAAGGGGGCUGUGUAUGUGUCUGAGGAGCUUAGUAAGACUCUGGUUCACACC` is recorded as 1.2.
Under “RBNS enrichment (R)”, `CGAGUGAGUGAGUUGAGUUACCUGAACUCUGUAGCACUGGUUGUUCAUAGUGAUGAAGGACAGCACUGCAGACAUCUCCCUUGCCAUCUCUAGCCUGCUGUGGAAGGAAA` is recorded as 3.42.
Under “RBNS enrichment (R)”, `UUUUUUGAGACAGAGUCUCUCUCUGUUGCCCAGGCUGGAGUGCAGUGGCACAAUCUCGGCUCACUGCAGCCUCCGCCUGCCGGGUCAAGCGAUUCUCCUACCUCAGCCUC` is recorded as 0.277.
Under “RBNS enrichment (R)”, `UCACGUGCUCCUUGUCCUAACCAGCCCCCGCGCGCCAUCUUCCCGUGGAGUGUGGGGAAGCUGCUGUCUCCCAGGAAGUGCCUUACUCAUCCCGCAACCAGUCAGCGCAC` is recorded as 0.243.
Under “RBNS enrichment (R)”, `ACUUGAAGAAUUUAAUAGGUACAGAAGUUUAUUCUGGAUAAUAAAUAAAUAAGGAUCACACUGUAUUAGGGGUUAUGGCAACAUUAUUGAAUUUUUUAUGUACAUAAAGC` is recorded as 0.642.
For `UCAUCUUCUGCCAAGCAUUCAGGCAGAGCAGCUGUUAACUGUGAUUCAAAGUCAGAAAAACAUCAAGAACUUCUUUGAUGCAUAGGGUGUAUCAGCACUCAGCUCCCACA`, “RBNS enrichment (R)” read 0.629.
`UAAAGAUGCAGAACGAACAGUUUGUGUGUGGGACUGACCCACCCACACACAGCAGGGCACUUGUUCUGCCUCAGGCUGCAUCUACUCAGUGCCGUUAAUAAACUUUAGAU`: “RBNS enrichment (R)” 0.667.
`GCACCACCACUGUGGAUUGCACGCCUUUCUGGGUGGCUGCAGUCUCUGUCCCUUGUGAAAGCAUGGCAGCUUCAGGCCCAUCUGCGGGCAUGUGGCUGUUUUUCCUGGGA`: “RBNS enrichment (R)” 16.6.
For `CGAGCCCUGGGCUUUGAAGGCAGCCUUAGGACAAACUCCUCUGCCUAAGGCAUCAUGCCUCAGCCCCUUGCACUGUAUGUUCCUAUAUGUCUACUUGUAUUGAUCCUUUG`, “RBNS enrichment (R)” read 0.776.

Study 2 — method: universal PBM; form: double-stranded DNA, one strand shown; sample: in vitro; tested at: not given; reading: higher = stronger binding
Target: Sal-like protein 4, full length isoform B (SALL4, Homo sapiens, UniProt Q9UJQ4-2, residues 1-616)
Notes: 8-mer, flanks averaged, mean of replicates
Residues (chain): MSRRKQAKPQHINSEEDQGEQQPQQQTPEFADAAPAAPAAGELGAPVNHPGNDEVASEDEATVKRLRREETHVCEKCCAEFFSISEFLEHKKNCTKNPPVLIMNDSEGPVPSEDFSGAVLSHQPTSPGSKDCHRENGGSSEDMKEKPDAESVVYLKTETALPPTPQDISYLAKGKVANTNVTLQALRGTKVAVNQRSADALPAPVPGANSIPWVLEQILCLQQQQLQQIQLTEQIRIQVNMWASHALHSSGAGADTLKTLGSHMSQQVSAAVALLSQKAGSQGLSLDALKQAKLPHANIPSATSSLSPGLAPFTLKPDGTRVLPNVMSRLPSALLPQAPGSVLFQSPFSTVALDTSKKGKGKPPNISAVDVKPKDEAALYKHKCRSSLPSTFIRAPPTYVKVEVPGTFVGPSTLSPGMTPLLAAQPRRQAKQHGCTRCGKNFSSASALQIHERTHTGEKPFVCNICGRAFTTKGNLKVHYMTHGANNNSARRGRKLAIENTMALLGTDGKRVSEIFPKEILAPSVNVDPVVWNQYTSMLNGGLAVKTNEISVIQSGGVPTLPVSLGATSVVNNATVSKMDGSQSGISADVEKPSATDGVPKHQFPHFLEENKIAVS
`ATGTGTGG` has an E-score of -0.0752.
The E-score of `GGCCCCCA` is reported as -0.296.
`AGGTTAAT` has an E-score of 0.146.
The E-score of `CGCCCACA` is reported as -0.0753.
With `AGTCGGTC` the E-score was -0.194.
`GGGACAGA` has an E-score of -0.237.
The E-score of `CACGTGCA` is reported as -0.112.
`ACGATTTA` gave an E-score of 0.268.
`AGGCATTC` gave an E-score of -0.16.
`CTTGGTTC` gave an E-score of 0.00999.
For `AGAGACTG`, the E-score was -0.251.
For `GGCGTGAA`, the E-score was -0.092.
For `GAACGTAA`, the E-score was 0.111.
`ATGAGGGA` gave an E-score of 0.147.
With `TGGGATAA` the E-score was 0.12.
The E-score of `TATTTCAA` is reported as 0.384.
`CCGACACA` gave an E-score of -0.0993.

Study 3 — method: RNA Bind-n-Seq; form: RNA; sample: in vitro; tested at: 200 nM; notes: whole 134-nt RNA, ends assumed; together with: 150 mM LiCl; relative to: input library; reading: higher = stronger binding; library: 7-deaza-guanosine replaces G
Target: Fragile X messenger ribonucleoprotein 1, C-terminal low-complexity region (Fmr1, Mus musculus, UniProt P35922)
Shared flanks, not repeated: GGGAGUUCUACAGUCCGACGAUC … UGGAAUUCUCGGGUGUCAAGG
For `UAACUUUAGAGGAGGAGCUGAUGGAUAUGGCAGUGGACGUGGAUUUGGGGAUGGCUAUAAUGGGUAUGGAGGAGGACCUGGAGGUGGCAA`, the log2 enrichment was 0.35.
With `UGGCCCUGGUGGCAGGCGGGGAGGAAGAGGUGGCCUCAUGGAUCGUGGUGGUCCCGGUGGAAUGUUCAGAGGUGGCCGUGGUGGAGACAG` the log2 enrichment was 0.715.
The log2 enrichment of `CCUCAAGUCCUGUGCUACACAUCGUAUGUACCGAAUCGGGGUGGGUGGGUGGAAAGUAUUAUGUUACGCCGUUCGGAUCUGCACUUCCAG` is reported as -0.739.
With `UCAAGUCCUGUGCUACACAUCGUAUGUACCGAAUCGGGGAAGGGAAGGGAAGGGGAAAGUAUUAUGUUACGCCGUUCGGAUCUGCACUUC` the log2 enrichment was -0.442.
`UGGCCCUGGUGUCAUGCGGGGAGGAAGAGGUGGCCUCAUGGAUCGUGGUGGUCCCGGUGGAAUGUUCAGAGGUGGCCGUGGUGGAGACAG` gave a log2 enrichment of -0.189.
With `UCCUGUGCUACACAUCGUAUGUACCGAAUCGGGGAAAAAAAGGGGAAAGGGGUUUGGGGAAAGUAUUAUGUUACGCCGUUCGGAUCUGCA` the log2 enrichment was -0.318.
The log2 enrichment of `CUGUGCUACACAUCGUAUGUACCGAAUCGGGAAAAAAAGGAAAAAAAGGGGAAAAAAAGGGAAAGUAUUAUGUUACGCCGUUCGGAUCUG` is reported as -2.55e-05.
`AAGUCCUGUGCUACACAUCGUAUGUACCGAAUCGGUUUGGUUUUUUUGGUUUUUGGAAAGUAUUAUGUUACGCCGUUCGGAUCUGCACUU` gave a log2 enrichment of -1.64.
With `GCAGGAAGUAAAAACAAAUGGAAAUGCUUCGGAUAGUGGCAAGGGUGGGGGUUGCUAAGGAAAGGGUGGGAUGGGAGUGGGUAAAGAGUU` the log2 enrichment was 1.61.

Study 4 — target: CCNF, cyclin fold, Cln2 fusion (human); method: yeast growth competition, sequencing; sample: yeast; notes: strong parent motif; relative to: not given; reading: higher = stronger binding
Starting sequence: INSM1 docking peptide (human); PKAIRKLHFEDEV
Under “normalised enrichment score”, `PKAIRKAHFEDEV [L7A]` is recorded as 0.156.
Under “normalised enrichment score”, `PEAIRKLHFEDEV [K2E]` is recorded as 6.36.
`PWAIRKLHFEDEV [K2W]` — result for “normalised enrichment score”: 7.59.
`PKAIRKWHFEDEV [L7W]`: “normalised enrichment score” -0.0995.
For `PKFIRKLHFEDEV [A3F]`, “normalised enrichment score” read 6.12.
Under “normalised enrichment score”, `PKAIFKLHFEDEV [R5F]` is recorded as 0.287.
`PKAIRKPHFEDEV [L7P]`: “normalised enrichment score” 0.000974.
Under “normalised enrichment score”, `PKGIRKLHFEDEV [A3G]` is recorded as 6.38.
`PKACRKLHFEDEV [I4C]`: “normalised enrichment score” 7.72.
`PKAIRWLHFEDEV [K6W]` — result for “normalised enrichment score”: 2.58.
`PKAIRKLHFEFEV [D11F]`: “normalised enrichment score” 7.68.
`PKAIRELHFEDEV [K6E]`: “normalised enrichment score” 5.62.
For `PKAIRKLHFQDEV [E10Q]`, “normalised enrichment score” read 7.37.

Study 5 — method: DHFR PCA, deep sequencing; sample: yeast; together with: (+)-ABA 58 µM; relative to: wild-type fitted maximum; reading: higher = stronger binding
Target: ABI1, truncated, D143A, DHFR fusion (Arabidopsis thaliana)
Notes: methotrexate growth selection, single substitutions
Starting sequence: PYL1, truncated, DHFR fusion (Arabidopsis thaliana); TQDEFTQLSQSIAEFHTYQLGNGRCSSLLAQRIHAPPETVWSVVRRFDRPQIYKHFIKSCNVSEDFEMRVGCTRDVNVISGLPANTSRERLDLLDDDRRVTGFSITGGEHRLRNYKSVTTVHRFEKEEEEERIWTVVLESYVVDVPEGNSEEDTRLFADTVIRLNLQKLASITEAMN; partner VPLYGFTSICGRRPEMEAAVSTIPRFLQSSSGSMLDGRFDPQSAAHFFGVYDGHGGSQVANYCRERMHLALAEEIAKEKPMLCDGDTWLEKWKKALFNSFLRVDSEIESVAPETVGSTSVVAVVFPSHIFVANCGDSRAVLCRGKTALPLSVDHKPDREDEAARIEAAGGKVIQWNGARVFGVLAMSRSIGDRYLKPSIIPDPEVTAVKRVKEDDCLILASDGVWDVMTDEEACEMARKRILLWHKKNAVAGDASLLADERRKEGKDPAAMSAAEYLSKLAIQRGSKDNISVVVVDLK
`T73C` — result for “relative binding score”: 82.3%.
`V70W`: “relative binding score” 14.7%.
`L112R`: “relative binding score” -3.93%.
`R49N`: “relative binding score” 76.2%.
For `L91A`, “relative binding score” read -1.28%.
For `P37N`, “relative binding score” read 26.2%.
Under “relative binding score”, `E174A` is recorded as 68.9%.
For `K58W`, “relative binding score” read 46%.
Under “relative binding score”, `T173M` is recorded as 70.5%.
Under “relative binding score”, `N149Y` is recorded as 17.9%.
`A84N` — result for “relative binding score”: 17.9%.
`Y18P`: “relative binding score” 88.8%.
Under “relative binding score”, `E67I` is recorded as 86.6%.
Under “relative binding score”, `I162N` is recorded as 25.1%.
For `L20Y`, “relative binding score” read 85.6%.

Repeated from above (study 4):
For `PKFIRKLHFEDEV [A3F]`, “normalised enrichment score” read 6.12.
`PKAIRKPHFEDEV [L7P]`: “normalised enrichment score” 0.000974.
`PWAIRKLHFEDEV [K2W]` — result for “normalised enrichment score”: 7.59.
Under “normalised enrichment score”, `PKAIRKAHFEDEV [L7A]` is recorded as 0.156.
`PKAIRELHFEDEV [K6E]`: “normalised enrichment score” 5.62.
